Measured values pooled from the literature.
Each numbered part is a random draw from the data of one study; scales do not carry over between parts. Substitutions count along the parent as printed.

Series 1 — technique: aptamer microarray, sandwich; form: DNA with 2'F-ANA; matrix: in vitro; tested at: 200 nM; added: Cy3 exosite-II aptamer, 400 nM; reading: higher = stronger binding; oligonucleotide: GGTTGGTGTGGTTGG
Target: Prothrombin, mature alpha-thrombin (F2, Homo sapiens, UniProt P00734)
Setting: whole 15-mer aptamer, many near background
Under “mean fluorescence intensity”, `2'F-ANA at 4 7 8 9 10 13 15` is recorded as 68.9 a.u.
Under “mean fluorescence intensity”, `2'F-ANA at 1 2 3 7 10 11 14 15` is recorded as 51.5 a.u.
Under “mean fluorescence intensity”, `2'F-ANA at 1 3 5 7 8 9 10 11 12 14` is recorded as 49.6 a.u.
Under “mean fluorescence intensity”, `2'F-ANA at 1 3 5 6 7 14 15` is recorded as 44.9 a.u.
`2'F-ANA at 2 4 6 8 9 11 13 14 15`: “mean fluorescence intensity” 69.4 a.u.
`2'F-ANA at 3 4 10 12 13`: “mean fluorescence intensity” 319 a.u.
`2'F-ANA at 3 4 5 8 9 12 15`: “mean fluorescence intensity” 225 a.u.
`2'F-ANA at 1 4 8 9 10 14` — result for “mean fluorescence intensity”: 45.1 a.u.
Under “mean fluorescence intensity”, `2'F-ANA at 7 9 12 13 14 15` is recorded as 217 a.u.
`2'F-ANA at 1 2 3 6 7 8 9 10 11 13 14`: “mean fluorescence intensity” 62.9 a.u.
`2'F-ANA at 1 3 4 6 7 8 9 11 13 14` — result for “mean fluorescence intensity”: 64.2 a.u.
`2'F-ANA at 1 4 5 6 7 8 13`: “mean fluorescence intensity” 54.9 a.u.

Series 2 — technique: protein binding microarray; form: double-stranded DNA, one strand shown; matrix: in vitro; tested at: not given; reference: not given; reading: higher = stronger binding
Target: Histone acetyltransferase KAT6A, winged helix 1, GST fusion (KAT6A, Homo sapiens, UniProt Q92794, residues 1-85)
Setting: 8-mer, flanks averaged, mean of 2 arrays, mostly near background
Construct (chain): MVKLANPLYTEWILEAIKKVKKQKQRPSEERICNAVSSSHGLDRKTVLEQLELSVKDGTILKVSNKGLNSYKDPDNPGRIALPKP
With `CCTCTGTC` the E-score was -0.0635.
For `TCGACTAA`, the E-score was -0.152.
`ACCTAAAA` gave an E-score of -0.0402.
For `GATCCTTA`, the E-score was -0.278.
For `TATGTCGA`, the E-score was -0.122.
For `ATAAGTTG`, the E-score was -0.247.
For `AATCCTCG`, the E-score was -0.119.
For `AGCCTATA`, the E-score was -0.138.
For `CAGAACGC`, the E-score was 0.212.
The E-score of `CCCTACGC` is reported as 0.193.

Series 3 — target: CCNB2, cyclin fold, Cln2 fusion (human); technique: yeast growth competition, sequencing; matrix: yeast; setting: weak parent motif; reference: not given; reading: higher = stronger binding
Starting sequence: ORC1 docking peptide (human); PRARKRLELGNLG; partner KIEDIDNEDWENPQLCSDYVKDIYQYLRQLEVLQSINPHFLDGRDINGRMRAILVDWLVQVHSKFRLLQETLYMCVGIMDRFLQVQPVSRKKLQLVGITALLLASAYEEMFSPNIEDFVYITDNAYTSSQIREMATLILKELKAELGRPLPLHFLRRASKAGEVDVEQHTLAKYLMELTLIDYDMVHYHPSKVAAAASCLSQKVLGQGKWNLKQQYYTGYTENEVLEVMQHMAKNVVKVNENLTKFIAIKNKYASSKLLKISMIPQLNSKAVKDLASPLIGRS
Under “normalised enrichment score”, `PRARKRLELGNNG [L12N]` is recorded as 0.514.
For `PRARKRLEKGNLG [L9K]`, “normalised enrichment score” read 0.644.
For `PRAEKRLELGNLG [R4E]`, “normalised enrichment score” read 0.442.
`PRARSRLELGNLG [K5S]`: “normalised enrichment score” 0.611.
Under “normalised enrichment score”, `PRARKRDELGNLG [L7D]` is recorded as 0.444.
`PRARKRLELGNCG [L12C]` — result for “normalised enrichment score”: 0.525.
`PRARKRLELGNPG [L12P]`: “normalised enrichment score” 0.492.

Further values, each from its own experiment
With `PhoQ, residues 284 288 289 292 302 303 TNSAEL` the fold induction was 2.21 (PhoP, residues 12 14 15 18 19 NYFTV (Escherichia coli, UniProt P23836); Sort-seq, item: YFP reporter; E. coli; PhoQ-PhoP variant library, added: 10 µM Mg2+; reference: high Mg2+ state, higher = stronger signaling).
